Measured values of several laboratories.
Values joined by “and” are separate records of one study, mostly repeats; a detail may differ. ± marks the error that the study gave.
STING1 H232R: Stimulator of interferon genes protein (STING1, Homo sapiens, UniProt Q86WV6, H232R)
UniProt Q86WV6, sequence (whole entry, unmodified, looked up): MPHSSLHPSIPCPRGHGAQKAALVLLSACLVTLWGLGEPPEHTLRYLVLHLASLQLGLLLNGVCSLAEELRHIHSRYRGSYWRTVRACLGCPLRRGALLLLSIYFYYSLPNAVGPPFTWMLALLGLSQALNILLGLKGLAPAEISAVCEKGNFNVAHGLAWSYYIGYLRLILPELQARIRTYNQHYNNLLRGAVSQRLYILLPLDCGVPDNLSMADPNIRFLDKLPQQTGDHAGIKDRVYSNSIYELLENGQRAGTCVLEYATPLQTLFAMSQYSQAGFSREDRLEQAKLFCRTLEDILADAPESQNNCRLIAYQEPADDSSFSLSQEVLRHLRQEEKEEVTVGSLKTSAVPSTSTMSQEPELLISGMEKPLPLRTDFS
UniProt P16591, sequence (whole entry, looked up): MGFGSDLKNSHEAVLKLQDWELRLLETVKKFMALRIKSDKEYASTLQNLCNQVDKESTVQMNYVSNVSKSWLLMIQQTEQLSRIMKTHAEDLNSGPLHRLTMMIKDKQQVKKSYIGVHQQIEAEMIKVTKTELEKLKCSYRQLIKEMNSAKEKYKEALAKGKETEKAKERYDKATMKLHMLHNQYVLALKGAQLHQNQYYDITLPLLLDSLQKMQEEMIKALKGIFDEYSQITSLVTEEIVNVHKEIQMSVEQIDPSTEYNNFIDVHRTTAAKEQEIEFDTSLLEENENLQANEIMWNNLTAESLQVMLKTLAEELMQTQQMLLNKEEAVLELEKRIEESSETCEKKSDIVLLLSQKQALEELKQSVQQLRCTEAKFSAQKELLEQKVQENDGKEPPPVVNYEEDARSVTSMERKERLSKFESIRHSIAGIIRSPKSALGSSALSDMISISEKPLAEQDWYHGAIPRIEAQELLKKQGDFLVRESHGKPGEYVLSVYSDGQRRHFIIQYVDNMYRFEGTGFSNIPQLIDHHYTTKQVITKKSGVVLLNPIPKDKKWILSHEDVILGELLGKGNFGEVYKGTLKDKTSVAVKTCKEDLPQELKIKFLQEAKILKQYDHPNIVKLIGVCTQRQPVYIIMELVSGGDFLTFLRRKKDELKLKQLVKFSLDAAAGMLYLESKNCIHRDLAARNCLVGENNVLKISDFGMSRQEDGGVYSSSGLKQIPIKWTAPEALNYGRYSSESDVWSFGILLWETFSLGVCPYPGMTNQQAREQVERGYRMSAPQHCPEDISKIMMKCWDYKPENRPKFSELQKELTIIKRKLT
UniProt P02769, sequence (whole entry, looked up): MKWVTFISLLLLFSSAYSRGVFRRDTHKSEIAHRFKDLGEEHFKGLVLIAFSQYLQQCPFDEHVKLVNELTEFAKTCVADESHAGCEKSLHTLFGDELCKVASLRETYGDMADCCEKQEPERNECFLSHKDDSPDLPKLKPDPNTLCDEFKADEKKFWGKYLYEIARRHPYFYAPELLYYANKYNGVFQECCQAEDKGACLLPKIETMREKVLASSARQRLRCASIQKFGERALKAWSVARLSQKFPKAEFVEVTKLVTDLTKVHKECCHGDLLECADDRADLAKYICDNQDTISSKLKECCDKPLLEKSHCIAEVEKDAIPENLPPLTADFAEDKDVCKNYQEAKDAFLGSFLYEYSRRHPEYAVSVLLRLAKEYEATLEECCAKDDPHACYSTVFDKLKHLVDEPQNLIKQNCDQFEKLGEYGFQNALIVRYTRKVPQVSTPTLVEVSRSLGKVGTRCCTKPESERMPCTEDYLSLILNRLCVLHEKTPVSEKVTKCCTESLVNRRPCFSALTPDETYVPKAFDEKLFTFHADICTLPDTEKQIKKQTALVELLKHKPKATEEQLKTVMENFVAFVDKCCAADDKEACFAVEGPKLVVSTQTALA
UniProt P10635, sequence (whole entry, looked up): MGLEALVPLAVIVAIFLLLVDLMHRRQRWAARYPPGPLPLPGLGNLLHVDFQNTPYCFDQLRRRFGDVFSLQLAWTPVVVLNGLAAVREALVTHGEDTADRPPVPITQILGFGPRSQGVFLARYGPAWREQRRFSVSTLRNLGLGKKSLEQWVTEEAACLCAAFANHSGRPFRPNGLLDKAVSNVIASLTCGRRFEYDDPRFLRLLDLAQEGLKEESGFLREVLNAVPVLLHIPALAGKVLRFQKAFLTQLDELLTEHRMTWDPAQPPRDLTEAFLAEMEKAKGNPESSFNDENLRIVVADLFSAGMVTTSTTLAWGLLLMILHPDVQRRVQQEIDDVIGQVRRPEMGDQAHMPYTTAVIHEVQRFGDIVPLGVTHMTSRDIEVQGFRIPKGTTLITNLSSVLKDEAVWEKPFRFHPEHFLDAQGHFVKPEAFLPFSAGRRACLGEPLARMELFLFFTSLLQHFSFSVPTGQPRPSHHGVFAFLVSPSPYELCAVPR
UniProt P45983, sequence (whole entry, looked up): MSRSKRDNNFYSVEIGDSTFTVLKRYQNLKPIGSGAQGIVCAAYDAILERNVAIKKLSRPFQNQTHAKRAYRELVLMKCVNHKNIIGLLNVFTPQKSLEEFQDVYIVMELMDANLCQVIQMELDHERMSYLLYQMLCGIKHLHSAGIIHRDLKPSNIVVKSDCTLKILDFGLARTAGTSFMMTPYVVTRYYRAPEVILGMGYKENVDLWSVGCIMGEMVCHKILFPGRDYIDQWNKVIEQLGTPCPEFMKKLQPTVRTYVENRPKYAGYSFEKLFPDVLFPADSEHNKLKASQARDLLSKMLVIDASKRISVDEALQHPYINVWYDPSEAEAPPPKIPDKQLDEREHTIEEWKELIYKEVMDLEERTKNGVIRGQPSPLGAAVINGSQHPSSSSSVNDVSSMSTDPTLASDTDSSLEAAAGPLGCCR

For `O=C(N[C@@H](CCNC(=O)c1ccc([N+](=O)[O-])o1)c1nc2ccccc2[nH]1)c1ccc(C2CCC2)cc1`, the EC50 was 5.7 µM (STING1 H232R; reporter gene, inhibitor; THP1-Dual KI-hSTING-R232; 24 h, 1 h preincubation, together with: diABZI 500 nM).
For `O=C1NC2(CC2)COc2ncc(F)cc2[C@H]2COCCN2c2ccn3ncc1c3n2`, the revertant colonies was 9 ± 6 revertants/plate (Salmonella typhimurium; Ames test; TA1535; 5000 µg/plate, 48 h, together with: rat liver S9).
`COC(=O)[C@@]1(Cc2ccccc2)C=C(C(=O)OC(C)(C)C)C(=O)CC1` gave a fraction bound of -0.00733 (MAPK8 (Homo sapiens, UniProt P45983); D-peptide binding, inhibitor, FP peptide displacement; 31.25 µM; lower is stronger displacement).
For `N#C[C@@H]1CC(F)(F)CN1C(=O)CNC(=O)c1ccnc2c(NC(=O)[C@@H](N)CCCCNC(=O)CCOCCOCCOCCOCCOCCOCCNC(=O)CN3CCN(CC(=O)[O-])CCN(CC(=O)[O-])CCN(CC(=O)[O-])CC3)cccc12.[177Lu+3]`, the tracer uptake was 0.03 %ID/g (U-87 MG tumour model; host not given, heart; 48 h, tumour-bearing).
The CC50 of `Nc1nc(-c2ccccc2)nc2[nH]nc(Nc3ccccc3F)c12` is reported as > 156 µM (HeLa Ohio; 72 h).
With `N#C[C@@H]1CC(F)(F)CN1C(=O)CNC(=O)c1ccnc2c(NC(=O)CCOCCOCCOCCOCCOCCOCCNC(=O)[C@H](CCCCNC(=O)CN3CCN(CC(=O)[O-])CCN(CC(=O)[O-])CCN(CC(=O)[O-])CC3)NC(=O)CCCc3ccc(I)cc3)cccc12.[177Lu+3]` the tracer uptake was 2.71 %ID/g (U-87 MG tumour model; host not given, blood; 4 h, tumour-bearing).
With `CC(C)C[C@H](NC(=O)[C@@H](CCCCNC(=O)[C@@H](Cc1ccccc1)NC(=O)CCCCCNC(=O)CN1CCN(CC(=O)O)CCN(CC(=O)O)CCN(CC(=O)O)CC1)NC(=O)[C@H](Cc1ccc(O)cc1)NC(=O)[C@H](CO)NC(=O)[C@H](Cc1c[nH]c2ccccc12)NC(=O)[C@H](Cc1c[nH]cn1)NC(=O)[C@@H]1CCC(=O)N1)C(=O)N[C@@H](CCCNC(=N)N)C(=O)N1CCC[C@H]1C(=O)NCC(N)=O` [indium-111 labelled] the tissue uptake was 0.05 ± 0.03 %ID/g (female athymic nude mice, pancreas; intravenous, 0.037 MBq, 2 h).
With `CN(Cc1ccccc1)C(=O)CN1CCN(CC(=O)[O-])CCN(CC(=O)N(C)Cc2ccccc2)CC1.[44Sc+3]` the tracer uptake was 0.49 %ID/g (mouse, heart; intravenous, 1 h).
`Cc1ncsc1-c1ccc(C(C)NC(=O)C2CC(O)CN2C(=O)C(NC(=O)CCCCCCCCCCN2CCCC(Nc3ncc(Cl)c(Nc4ccccc4S(=O)(=O)C(C)C)n3)C2)C(C)(C)C)cc1` (stereo not drawn) — result for “log2 fold change”: -1.28 (22Rv1; RNA-seq, refers to: SLF2 mRNA; concentration not given; relative to: DMSO).
`Nc1nc(-c2ccccc2)nc2[nH]nc(Nc3ccc(Cl)cc3)c12` has a CC50 of > 594 µM (HeLa Ohio; 72 h).
With `Cc1nn(-c2cccc(N)c2)c(=O)c2cnc(Nc3ccc(N4CCNCC4)cc3)nc12` the IC50 was > 10 µM (FER (Homo sapiens, UniProt P16591); enzyme activity, inhibitor).
For `Nc1nc(-c2ccccc2)nc2[nH]nc(Nc3cccc(C(F)(F)F)c3)c12`, the CC50 was 32.4 µM (HeLa Ohio; 72 h).
Under “log2 fold change”, `COC1CN([C@H]2CC[C@H]([C@@]3(C)Oc4c(Cl)cc(C(=O)NCc5c(SC)cc(C)[nH]c5=O)c(C)c4O3)CC2)C1` is recorded as 5.92 (RNA-seq, refers to: PRG2 mouse homolog; mouse, HT-1376 xenograft, whole blood; dose not given; relative to: vehicle).
With `N#C[C@@H]1CCCN1C(=O)CNC(=O)c1ccnc2ccc(OCCCN3CCN(C(=O)CCc4ccc5c(c4)CN4CCN(Cc6cc(CCC(=O)O)ccc6O)CC(=O)[O][Al-]([18F])([O]C(=O)C4)[O]5)CC3)cc12` (stereo partly drawn) the tracer uptake was 8.26 %ID/g (U-87 MG tumour model; host not given, bone; 1 h, tumour-bearing).
The CC50 of `Cc1ccc(-c2nc(N)c3c(Nc4ccc(Cl)cc4)n[nH]c3n2)cc1` is reported as 6.8 µM (HeLa Ohio; 72 h).
The IC50 of `CNS(=O)(=O)Nc1nccc(Cc2c(C)c3ccc(Oc4ncccc4F)cc3oc2=O)c1F` is reported as > 1 µM (HCC38; cell viability; 7 days).
`COc1cccc(OC)c1-c1cc(C(=O)NC2(C(=O)O)C3CC4CC(C3)CC2C4)nn1-c1ccc(C(=O)N(C)CCOCCOCCN(C)C(=O)[C@H](CCCCNC(=O)[C@H](CC(C)C)NC(=O)C2OC2C(=O)O)NC(=O)CN2CCN(CC(=O)[O-])CCN(CC(=O)[O-])CCN(CC(=O)[O-])CC2)cc1C(C)C.[177Lu+3]` (mixture of isomers) has a tracer uptake of 0.28 %ID/g (HT-29 tumour model; host not given, blood; 7 days, tumour-bearing).
The CC50 of `Nc1nc(-c2cccc(OC(F)(F)F)c2)nc2[nH]nc(Nc3ccc(C(F)(F)F)cc3)c12` is reported as 7.9 µM (HeLa Ohio; 72 h).
With `O=C([O-])CN1CCN(CC(=O)[O-])CCN(Cc2cccc(C(=O)[O-])n2)CC1.[44Sc+3]` the tracer uptake was 0.57 %ID/g (mouse, blood; intravenous, 1 h).
With `CCN(CC)CC#CCNc1ccnc2cc(Cl)ccc12` the revertants was 4 revertants/well and 2 revertants/well (Salmonella typhimurium; mini-Ames test; TA1535; 62.5 µg/well, without S9).
With `COc1cccc(OC)c1-c1cc(C(=O)NC2(C(=O)O)C3CC4CC(C3)CC2C4)nn1-c1ccc(C(=O)NCCNC(=O)[C@H](CCCCNC(=O)[C@H](CC(C)C)NC(=O)C2OC2C(=O)O)NC(=O)CN2CCN(CC(=O)[O-])CCN(CC(=O)[O-])CCN(CC(=O)[O-])CC2)cc1C(C)C.[177Lu+3]` (mixture of isomers) the tracer uptake was 0.2 %ID/g (HT-29 tumour model; host not given, pancreas; 72 h, tumour-bearing).
`CN(C)c1ccc2c(c1)[Si](C)(C)c1cc(N(C)C)ccc1C21OC(=O)c2ccc(C(=O)O)cc21` has a Kd of 9.9 ± 0.5 µM (Albumin (ALB, Bos taurus, UniProt P02769); binding, fluorescence titration; PBS).
The tracer uptake of `N#C[C@@H]1CC(F)(F)CN1C(=O)CNC(=O)c1ccnc2c(NC(=O)[C@H](CCCCNC(=O)CCOCCOCCOCCOCCOCCOCCNC(=O)CN3CCN(CC(=O)[O-])CCN(CC(=O)[O-])CCN(CC(=O)[O-])CC3)NC(=O)CCCc3ccc(I)cc3)cccc12.[177Lu+3]` is reported as 0.27 %ID/g (U-87 MG tumour model; host not given, pancreas; 48 h, tumour-bearing).
`CS(=O)(=O)c1ccc(Nc2n[nH]c3nc(-c4ccccc4)nc(N)c23)cc1` has a CC50 of 31.3 µM (HeLa Ohio; 72 h).
For `C=C(NC(=O)c1csc(-c2nc3c(cc2O)-c2nc(cs2)C(=O)NC(C(C)O)C(=O)NC(=C(C)OC)c2nc(cs2)C(=O)NC2c4nc(cs4)C(=O)NC(COC(=O)c4c5c6c(cccc6n4O)COC(=O)C(OC4CC(C)(O)C(N(C)C)C(C)O4)C2OC5)c2nc-3cs2)n1)C(N)=O` (stereo not drawn), the MRT(0-last) was 1.48 h (Sprague-Dawley rat, male, plasma; intravenous infusion, 6 mg/kg single dose).
For `CC(C)OCCOCc1ccc(OCC(O)CN(N=O)C(C)C)cc1` (stereo not drawn), “revertant fold increase” read 1.3 fold (Salmonella typhimurium; Ames test; TA1537; 500 µg/plate, 30 % rat S9; relative to: solvent control).
Under “amount in cell extract”, `OC(Cc1cc(-c2ccc(C(O)C(F)(F)F)s2)sc1-c1ccc(-c2sc(-c3ccc(C(O)C(F)(F)F)s3)cc2CC(O)C(F)(F)F)s1)C(F)(F)F` (stereo not drawn) is recorded as 1.32 nmol and 1.29 nmol and 1.53 nmol (primary human fetal neurons; LC-MS/MS; 4 µM, 60 min, replicate 1).
With `CN(Cc1ccccc1)C(=O)CN1CCN(CC(=O)[O-])CCN(Cc2cccc(C(=O)[O-])n2)CC1.[44Sc+3]` the tracer uptake was 2.85 %ID/g (mouse, kidney; intravenous, 1 h).
`CNC(=O)C1CCCN(C(=O)C2CC3CCC2N3C(=O)[C@@H]2C[C@@H](O)CN2C(=O)NCc2cccc(Cl)c2F)C1` (mixture of isomers) gave a remaining activity of 131% (Cytochrome P450 2D6 (CYP2D6, Homo sapiens, UniProt P10635); enzyme activity, inhibitor, time-dependent inhibition; 16.7 µM, preincubated with NADPH; relative to: negative control).
The EC50 of `O=C(N[C@@H](CCNC(=O)c1ccc([N+](=O)[O-])o1)c1nc2ccccc2[nH]1)c1ccn(-c2ccccc2)n1` is reported as 18 µM (STING1 H232R; reporter gene, inhibitor; THP1-Dual KI-hSTING-R232; 24 h, 1 h preincubation, together with: diABZI 500 nM).
The revertants of `Nc1nc2cc(C(=O)c3ccc(F)cc3)ccc2[nH]1` is reported as 125 revertants per plate (Salmonella typhimurium; Ames preincubation test; TA100; 9.8 µg per plate, 3 days, without S9).
For `Nc1ncc(-c2cc(-c3cnn(CC(F)(F)F)c3)ncc2F)nc1C(=O)NC1CNCC(F)C1` (stereo not drawn), the remaining binding was 100% (AURKB; KINOMEscan; 1 µM; relative to: DMSO control).
The CC50 of `Nc1nc(-c2ccccn2)nc2[nH]nc(Nc3ccc(F)cc3)c12` is reported as > 156 µM (HeLa Ohio; 72 h).
`CC(C)=CCc1cc(C(=O)/C=C/c2ccc(O)cc2)c(O)cc1O`: “substrate inhibition constant Ki” 20.7 ± 3.75 µM (phase I metabolism; rat liver microsomes).
`Nc1nc(-c2ccc(C(F)(F)F)cc2)nc2[nH]nc(Nc3ccc(F)cc3)c12` gave a CC50 of 2.6 µM (HeLa Ohio; 72 h).
`O=C1C2CC3CC1CC(C(=O)N1CCN(c4ccc([N+](=O)[O-])c5ncccc45)CC1)(C3)C2`: “revertant fold increase” 1.6 (Salmonella typhimurium; Ames test; TA98; 0.31 µg/well, without S9; relative to: vehicle).

Repeated from above:
The tracer uptake of `N#C[C@@H]1CC(F)(F)CN1C(=O)CNC(=O)c1ccnc2c(NC(=O)[C@H](CCCCNC(=O)CCOCCOCCOCCOCCOCCOCCNC(=O)CN3CCN(CC(=O)[O-])CCN(CC(=O)[O-])CCN(CC(=O)[O-])CC3)NC(=O)CCCc3ccc(I)cc3)cccc12.[177Lu+3]` is reported as 0.27 %ID/g (U-87 MG tumour model; host not given, pancreas; 48 h, tumour-bearing).
`CS(=O)(=O)c1ccc(Nc2n[nH]c3nc(-c4ccccc4)nc(N)c23)cc1` has a CC50 of 31.3 µM (HeLa Ohio; 72 h).
For `C=C(NC(=O)c1csc(-c2nc3c(cc2O)-c2nc(cs2)C(=O)NC(C(C)O)C(=O)NC(=C(C)OC)c2nc(cs2)C(=O)NC2c4nc(cs4)C(=O)NC(COC(=O)c4c5c6c(cccc6n4O)COC(=O)C(OC4CC(C)(O)C(N(C)C)C(C)O4)C2OC5)c2nc-3cs2)n1)C(N)=O` (stereo not drawn), the MRT(0-last) was 1.48 h (Sprague-Dawley rat, male, plasma; intravenous infusion, 6 mg/kg single dose).
